Published values of several laboratories.
Protocols differ between the studies behind these lines. ± gives the spread as reported.

O=C(N[C@@H](CC1CCCCC1)C(=O)N[C@@H](C[C@@H]1CCNC1=O)C(O)S(=O)(=O)O)OCc1cccc(Cl)c1 (some centres unmarked)  CC50 (CRFK; cell growth or viability; 36 h): 138 µM
O=C(O)COc1ccc(Br)cc1C=NNC(=O)Cc1ccccc1 (mixture of isomers)  seizure protection (mouse, PTZ-induced seizures; oral, 20 mg/kg, 0.5 h, together with: PTZ 85 mg/kg i.p.): 100%
CCCCCC(=O)OCn1cc(F)c(=O)[nH]c1=O  half-life (Sprague-Dawley rat, rat intestinal homogenate; 80 µg/mL, 37 °C): < 4.98 min
CC[C@H](C)[C@@H]1NC(=O)[C@H](C(C)C)NC(=O)[C@H](Cc2ccccc2)NC(=O)[C@H](Cc2ccccc2)NC(=O)[C@@H]2CCCN2C(=O)[C@@H]2CCCN2C(=O)[C@H]([C@@H](C)CC)NC(=O)[C@H](CC(C)C)NC(=O)[C@H](CCSC)NC1=O  cytotoxicity (SK-BR-3; LDH release; 400 µg/mL, 24 h): 41%
O=C[C@H](C[C@@H]1CCNC1=O)NC(=O)[C@H](CC1CCCCC1)NC(=O)OCc1cccc(Cl)c1  CC50 (CRFK; cell growth or viability; 36 h): 116 µM
CCCCn1ccn2c(-c3ccc(Oc4ccnc(C)c4)c(F)c3)c(C)nc2c1=O  metabolized fraction (human liver microsomes; 5 µM, 15 min): 19%
O=C[C@H](C[C@@H]1CCNC1=O)NC(=O)[C@H](CC1CCCCC1)NS(=O)(=O)c1cccc(Cl)c1  therapeutic index (feline coronavirus; CRFK, FIPV-1146; relative to: CC50 over EC50): > 417
COc1ccc(CNc2ccc(-c3ccn4c(CC5CC5)nnc4c3C(F)(F)F)cc2F)cn1  concentration (male Sprague-Dawley rat, plasma; subcutaneous, 10 mg/kg, 4 h, single dose): 643 ng/mL
O=C(O)COc1ccccc1/C=N/NC(=O)CNc1ccc(Cl)cc1  seizure severity (Racine scale 0-5; male mice, pilocarpine-induced seizures; oral, 20 mg/kg, 2 h after pilocarpine, unit not given, together with: pilocarpine 300 mg/kg i.p.; higher = more severe): 2.4 ± 0.52
CC[C@H](C)[C@@H]1NC(=O)[C@H](CC(C)C)NC(=O)[C@H](Cc2ccccc2)NC(=O)[C@H](Cc2ccccc2)NC(=O)[C@@H]2CCCN2C(=O)[C@@H]2CCCN2C(=O)[C@H](C(C)C)NC(=O)[C@H](CC(C)C)NC(=O)[C@H]([C@@H](C)CC)NC1=O  cytotoxicity (MCF7; LDH release; 200 µg/mL, 48 h): 7%
FC(F)(F)c1c(-c2ccc(NC3CCOCC3)c(Cl)c2)ccn2c(CC3CC3)nnc12  compound metabolized (human liver microsomes; 5 µM, 15 min): 18%

Repeated from above:
CCCCCC(=O)OCn1cc(F)c(=O)[nH]c1=O  half-life (Sprague-Dawley rat, rat intestinal homogenate; 80 µg/mL, 37 °C): < 4.98 min
